Assay results from different studies.
Every numbered part comes from another study and shows a few of its results, in no order. “And” joins repeats or separate records; there may be more than shown.
Chain of UniProt P42336 (whole entry, unmodified, looked up): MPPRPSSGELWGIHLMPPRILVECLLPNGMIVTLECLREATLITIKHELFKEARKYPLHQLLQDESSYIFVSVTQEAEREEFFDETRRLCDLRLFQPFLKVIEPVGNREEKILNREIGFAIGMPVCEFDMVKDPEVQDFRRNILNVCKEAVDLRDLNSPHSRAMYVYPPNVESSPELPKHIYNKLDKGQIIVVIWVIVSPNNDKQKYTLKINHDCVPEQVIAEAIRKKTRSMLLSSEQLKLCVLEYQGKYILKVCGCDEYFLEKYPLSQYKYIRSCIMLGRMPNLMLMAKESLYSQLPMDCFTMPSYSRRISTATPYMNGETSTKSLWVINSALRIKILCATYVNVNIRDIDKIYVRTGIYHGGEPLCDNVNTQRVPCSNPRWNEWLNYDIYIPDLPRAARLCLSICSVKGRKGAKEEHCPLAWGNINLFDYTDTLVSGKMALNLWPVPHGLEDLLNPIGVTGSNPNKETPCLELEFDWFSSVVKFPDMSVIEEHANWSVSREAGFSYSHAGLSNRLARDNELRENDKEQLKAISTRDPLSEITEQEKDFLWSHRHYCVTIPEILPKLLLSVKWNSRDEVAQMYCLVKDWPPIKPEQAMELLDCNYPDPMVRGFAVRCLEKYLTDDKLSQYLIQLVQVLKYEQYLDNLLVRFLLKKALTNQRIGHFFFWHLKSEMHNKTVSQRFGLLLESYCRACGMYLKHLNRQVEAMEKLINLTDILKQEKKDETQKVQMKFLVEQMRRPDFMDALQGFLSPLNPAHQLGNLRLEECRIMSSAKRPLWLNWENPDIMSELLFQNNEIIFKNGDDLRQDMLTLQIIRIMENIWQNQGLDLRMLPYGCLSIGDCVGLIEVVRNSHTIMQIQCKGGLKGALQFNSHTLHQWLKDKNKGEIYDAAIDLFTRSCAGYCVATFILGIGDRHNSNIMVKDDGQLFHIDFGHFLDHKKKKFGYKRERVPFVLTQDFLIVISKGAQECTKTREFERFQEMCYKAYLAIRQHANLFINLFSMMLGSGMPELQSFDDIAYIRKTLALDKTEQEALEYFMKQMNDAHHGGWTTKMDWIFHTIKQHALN
Chain of UniProt Q6ZN16 (whole entry, looked up): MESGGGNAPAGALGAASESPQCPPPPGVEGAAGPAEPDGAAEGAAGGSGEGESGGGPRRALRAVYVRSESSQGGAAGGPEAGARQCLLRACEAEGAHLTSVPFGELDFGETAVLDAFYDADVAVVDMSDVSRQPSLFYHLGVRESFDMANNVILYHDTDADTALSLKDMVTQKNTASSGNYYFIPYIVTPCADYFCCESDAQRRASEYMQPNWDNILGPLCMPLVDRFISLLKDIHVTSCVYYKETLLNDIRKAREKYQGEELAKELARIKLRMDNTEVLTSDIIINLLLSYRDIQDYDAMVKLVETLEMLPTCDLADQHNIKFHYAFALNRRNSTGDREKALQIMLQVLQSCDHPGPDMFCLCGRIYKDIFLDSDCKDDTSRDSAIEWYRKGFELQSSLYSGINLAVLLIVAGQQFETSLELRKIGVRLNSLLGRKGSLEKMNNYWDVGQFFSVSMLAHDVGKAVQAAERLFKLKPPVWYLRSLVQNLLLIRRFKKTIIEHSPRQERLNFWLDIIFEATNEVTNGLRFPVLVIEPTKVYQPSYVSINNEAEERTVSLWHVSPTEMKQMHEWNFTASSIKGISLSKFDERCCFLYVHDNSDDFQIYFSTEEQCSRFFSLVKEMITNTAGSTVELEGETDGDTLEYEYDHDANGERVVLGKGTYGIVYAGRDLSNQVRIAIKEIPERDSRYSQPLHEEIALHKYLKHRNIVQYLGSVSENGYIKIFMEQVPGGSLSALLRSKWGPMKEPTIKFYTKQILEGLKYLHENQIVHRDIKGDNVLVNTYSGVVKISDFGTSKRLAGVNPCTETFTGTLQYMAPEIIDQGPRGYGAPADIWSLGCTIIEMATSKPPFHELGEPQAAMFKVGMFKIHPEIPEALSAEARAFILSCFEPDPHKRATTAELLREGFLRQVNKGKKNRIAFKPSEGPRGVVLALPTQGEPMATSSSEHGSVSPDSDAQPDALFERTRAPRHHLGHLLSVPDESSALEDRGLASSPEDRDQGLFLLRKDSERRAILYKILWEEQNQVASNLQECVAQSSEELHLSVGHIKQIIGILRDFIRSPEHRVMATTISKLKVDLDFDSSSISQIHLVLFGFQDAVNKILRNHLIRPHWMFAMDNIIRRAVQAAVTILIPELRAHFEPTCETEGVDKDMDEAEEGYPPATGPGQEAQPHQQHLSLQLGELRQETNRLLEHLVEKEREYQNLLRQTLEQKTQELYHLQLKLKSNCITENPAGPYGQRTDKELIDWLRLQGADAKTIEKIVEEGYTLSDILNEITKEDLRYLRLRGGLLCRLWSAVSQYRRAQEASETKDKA
Chain of UniProt P53350 (whole entry, looked up): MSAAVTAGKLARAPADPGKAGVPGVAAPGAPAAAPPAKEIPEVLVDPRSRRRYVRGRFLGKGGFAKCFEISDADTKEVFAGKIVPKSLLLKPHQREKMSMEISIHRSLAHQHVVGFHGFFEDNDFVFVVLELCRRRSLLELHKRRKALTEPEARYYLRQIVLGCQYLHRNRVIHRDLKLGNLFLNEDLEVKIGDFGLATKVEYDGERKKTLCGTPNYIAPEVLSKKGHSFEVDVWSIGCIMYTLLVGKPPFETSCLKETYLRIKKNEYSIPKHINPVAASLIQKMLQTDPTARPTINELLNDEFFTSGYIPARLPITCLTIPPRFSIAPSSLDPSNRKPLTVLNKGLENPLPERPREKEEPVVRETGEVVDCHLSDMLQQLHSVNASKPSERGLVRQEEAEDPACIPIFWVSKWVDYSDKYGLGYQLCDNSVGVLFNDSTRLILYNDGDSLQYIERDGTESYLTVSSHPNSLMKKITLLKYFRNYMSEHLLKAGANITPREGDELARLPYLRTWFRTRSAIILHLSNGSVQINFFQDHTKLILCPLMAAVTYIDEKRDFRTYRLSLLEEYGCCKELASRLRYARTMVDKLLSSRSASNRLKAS
Chain of UniProt Q15831 (whole entry, looked up): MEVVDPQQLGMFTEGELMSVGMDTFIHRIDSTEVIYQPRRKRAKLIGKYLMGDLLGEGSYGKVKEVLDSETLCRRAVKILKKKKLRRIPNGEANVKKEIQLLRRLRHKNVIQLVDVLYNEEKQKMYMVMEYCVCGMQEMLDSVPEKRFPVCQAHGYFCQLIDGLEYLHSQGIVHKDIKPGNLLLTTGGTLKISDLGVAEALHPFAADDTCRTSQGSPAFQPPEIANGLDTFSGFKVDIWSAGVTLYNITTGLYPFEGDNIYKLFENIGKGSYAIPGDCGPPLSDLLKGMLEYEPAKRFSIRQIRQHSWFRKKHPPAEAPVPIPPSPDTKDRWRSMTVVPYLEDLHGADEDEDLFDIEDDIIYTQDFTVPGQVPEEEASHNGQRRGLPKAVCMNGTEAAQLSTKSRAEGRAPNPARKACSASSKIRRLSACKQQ

Series 1
Host: C57BL/6 IFN-γ knockout mouse female
Sample: plasma
Route: oral
Dose: 10 mg/kg
`CN(C(=O)c1ccn2ncc(-c3ccc(C(N)=O)cc3)c2c1)c1ccc(C#N)cn1` gave a Cmax of 618 nM and 800 nM and 560 nM.
`COC(=O)c1cc(Cl)ccc1N(C)C(=O)c1ccn2ncc(-c3ccc(C(N)=O)cc3)c2c1` gave a Cmax of 24 nM and 44 nM and 30 nM.
`CNC(=O)c1ccc(-c2cnn3ccc(C(=O)N(CC(=O)O)c4ccc(Cl)cc4)cc23)cc1` gave a Cmax of 85 nM and 53 nM and 11 nM.
With `CNC(=O)c1ccc(-c2cnn3ccc(C(=O)N(C[C@H]4CCC(=O)O4)c4ccc(OC(F)(F)F)cc4)cc23)cc1` the Cmax was 18 nM and 31 nM and 46 nM.
`CCOC(=O)CN(C(=O)c1ccn2ncc(-c3ccc(C(=O)NC)cc3)c2c1)c1ccc(Cl)cc1` gave a Cmax of 336 nM and 301 nM and 242 nM.

Series 2
Structure (SMILES): C[C@H](NC(=O)c1cnc2n1[C@](C)(Cc1ccc(C#N)cc1)C(=O)N2c1cc(Cl)c(F)c(Cl)c1)C(=O)NC1(c2ccccn2)CC1
Effect on: cell-free assay
Method: competition with immobilised ligand
Concentration: 1 µM
For Dual specificity tyrosine-phosphorylation-regulated kinase 1B (DYRK1B, Homo sapiens, UniProt Q9Y463): remaining binding read 100%.
The remaining binding was 100% (Serine/threonine-protein kinase PLK1 (PLK1, Homo sapiens, UniProt P53350)).
The remaining binding was 100% (Serine/threonine-protein kinase STK11 (STK11, Homo sapiens, UniProt Q15831)).
The remaining binding was 100% (Serine/threonine-protein kinase 10 (STK10, Homo sapiens, UniProt O94804)).
It gave 100% for remaining binding (Tyrosine-protein kinase HCK (HCK, Homo sapiens, UniProt P08631)).
Tyrosine-protein kinase ABL1, non-phosphorylated (ABL1, Homo sapiens, UniProt P00519, F317L) — remaining binding: 98%.
Mitogen-activated protein kinase kinase kinase 19 (MAP3K19, Homo sapiens, UniProt Q56UN5) — remaining binding: 100%.
The remaining binding was 97% (Mitogen-activated protein kinase kinase kinase 4 (MAP3K4, Homo sapiens, UniProt Q9Y6R4)).
Phosphatidylinositol 4,5-bisphosphate 3-kinase catalytic subunit alpha isoform (PIK3CA, Homo sapiens, UniProt P42336, Q546K) — remaining binding: 97%.
It gave 76% for remaining binding (Mitogen-activated protein kinase kinase kinase 15 (MAP3K15, Homo sapiens, UniProt Q6ZN16)).
The remaining binding was 100% (Mitogen-activated protein kinase kinase kinase 3 (MAP3K3, Homo sapiens, UniProt Q99759)).

Series 3
Target: Insulin receptor-related protein (INSRR, Homo sapiens, UniProt P14616)
Chain of UniProt P14616 (whole entry, looked up): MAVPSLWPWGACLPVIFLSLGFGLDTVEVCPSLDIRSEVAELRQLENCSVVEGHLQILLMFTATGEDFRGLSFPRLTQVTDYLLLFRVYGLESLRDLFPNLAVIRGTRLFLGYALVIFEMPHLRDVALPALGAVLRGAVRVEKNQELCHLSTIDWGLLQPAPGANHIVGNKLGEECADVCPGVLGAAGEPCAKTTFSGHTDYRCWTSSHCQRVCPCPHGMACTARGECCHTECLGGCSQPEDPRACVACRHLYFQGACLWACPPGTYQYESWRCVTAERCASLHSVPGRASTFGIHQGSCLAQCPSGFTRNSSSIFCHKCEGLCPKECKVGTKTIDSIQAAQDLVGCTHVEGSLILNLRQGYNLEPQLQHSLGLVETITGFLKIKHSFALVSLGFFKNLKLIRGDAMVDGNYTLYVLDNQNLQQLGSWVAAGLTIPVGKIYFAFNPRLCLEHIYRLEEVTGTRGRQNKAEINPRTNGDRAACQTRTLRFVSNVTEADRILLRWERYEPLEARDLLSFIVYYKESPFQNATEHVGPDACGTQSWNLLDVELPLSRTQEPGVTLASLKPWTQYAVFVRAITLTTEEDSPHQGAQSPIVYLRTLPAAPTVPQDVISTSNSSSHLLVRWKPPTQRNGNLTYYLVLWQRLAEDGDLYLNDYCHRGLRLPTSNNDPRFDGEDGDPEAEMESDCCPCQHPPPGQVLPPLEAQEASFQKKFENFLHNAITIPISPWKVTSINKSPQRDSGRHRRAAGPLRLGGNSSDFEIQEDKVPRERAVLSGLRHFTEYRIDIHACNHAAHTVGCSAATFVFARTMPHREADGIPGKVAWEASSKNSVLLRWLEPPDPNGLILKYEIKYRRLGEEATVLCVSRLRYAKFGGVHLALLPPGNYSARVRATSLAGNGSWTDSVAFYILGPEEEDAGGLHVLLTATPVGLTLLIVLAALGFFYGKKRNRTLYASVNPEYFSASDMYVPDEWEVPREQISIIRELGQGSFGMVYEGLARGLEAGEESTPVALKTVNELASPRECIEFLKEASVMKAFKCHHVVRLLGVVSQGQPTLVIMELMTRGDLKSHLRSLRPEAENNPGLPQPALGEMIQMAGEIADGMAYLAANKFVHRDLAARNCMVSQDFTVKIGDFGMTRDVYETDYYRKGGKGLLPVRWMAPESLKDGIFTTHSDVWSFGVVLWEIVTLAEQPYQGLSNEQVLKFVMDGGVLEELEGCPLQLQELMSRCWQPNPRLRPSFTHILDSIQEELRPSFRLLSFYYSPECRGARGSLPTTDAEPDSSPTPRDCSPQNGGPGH
Effect on: enzyme activity
Mode: inhibitor
Concentration: 0.5 µM
Relative to: control
With `N#CC(=C(N)Sc1ccc(N)cc1)c1ccccc1C(F)(F)F` the remaining activity was 88.1%.
The remaining activity of `CCCC(=O)Oc1ccc2[nH]c(C(=O)c3cc4ccccc4[nH]3)cc2c1` is reported as 97.9%.
`CC[n+]1c(/C=C/N(C)c2ccccc2)n(-c2ccccc2)c2ccc(-c3nc4ccccc4s3)cc21` gave a remaining activity of 101%.
For `Nc1nc(Nc2ccc(S(N)(=O)=O)cc2)nn1C(=O)c1c(F)cccc1F`, the remaining activity was 93.8%.
The remaining activity of `CC#CC(=O)Nc1cc2c(Nc3ccc(F)c(Cl)c3)ncnc2cn1` is reported as 101%.
`NC(=O)c1ccc(N(C(N)=O)c2c(F)cccc2F)nc1-c1ccc(F)cc1F` gave a remaining activity of 102%.
For `Fc1ccc(-c2nc3n(c2-c2ccncc2)CCS3)cc1`, the remaining activity was 102%.
With `Cc1ccc(NC2=CC(=O)c3sc(C)nc3C2=O)cc1` the remaining activity was 90%.
The remaining activity of `COc1cc(Nc2c(C#N)cnc3cc(OCCCN4CCN(C)CC4)c(OC)cc23)c(Cl)cc1Cl` is reported as 36.9%.

Series 4
Host: human
Sample: microsomes or S9
Concentration: 2 µM
Time: 0.5 h
`Cc1ccc(-c2nn(C(C)(C)C)c(N)c2C#N)cc1` gave a remaining compound of 34.8%.
For `Cc1nc2c(c(=O)n1C)CN(C(=O)[C@@H]1CCCN1C1CCN(C)CC1)C2`, the remaining compound was 90.9%.
With `O=C(c1ccccc1)c1ccccc1C(=O)N1Cc2ccccc2C(C(=O)O)C1` (stereo not drawn) the remaining compound was 95.7%.
`Cc1nc(-c2nn(C)c(C)c2Cl)n(-c2ccc(F)cc2F)n1` has a remaining compound of 53.8%.
For `Cc1nc(CCNCc2csc(-c3ncccn3)n2)cs1`, the remaining compound was 69%.
`COc1c(Br)cc(OCCc2c(O)nc(C)c(Br)c2O)cc1Br` gave a remaining compound of 0.235%.
The remaining compound of `CC1CCCN(c2ncc(CN(Cc3ccccc3)C3CCN(C)CC3)cn2)C1` (stereo not drawn) is reported as 2.2%.
`O=c1c2c(ccn1Cc1cc(F)ccc1F)ccn2Cc1cccnc1` has a remaining compound of 69.9%.
`Cc1cc(C2CN(C(=O)Cc3ccon3)CCO2)ccc1F` (stereo not drawn) gave a remaining compound of 87.7%.
`COc1ccc(OC)c(NC(=O)C2C3CC4OC(=O)C2C4C3)c1` (stereo not drawn) gave a remaining compound of greater than 99%.
`Cc1cc(C)nc(N2CCn3c(nnc3C3CCCN3C)C2)n1` (stereo not drawn) has a remaining compound of 92%.

For quick reference, copied from above (series 3):
With `N#CC(=C(N)Sc1ccc(N)cc1)c1ccccc1C(F)(F)F` the remaining activity was 88.1%.
The remaining activity of `CCCC(=O)Oc1ccc2[nH]c(C(=O)c3cc4ccccc4[nH]3)cc2c1` is reported as 97.9%.
For `Fc1ccc(-c2nc3n(c2-c2ccncc2)CCS3)cc1`, the remaining activity was 102%.
